Measurements from different studies.
A part holds a random share of what one study measured. Values joined by “and” are separate records of one study, mostly repeats; a detail may differ. Positions count from the first letter of the parent shown.
Chain of UniProt Q9NYY3 (whole entry, looked up): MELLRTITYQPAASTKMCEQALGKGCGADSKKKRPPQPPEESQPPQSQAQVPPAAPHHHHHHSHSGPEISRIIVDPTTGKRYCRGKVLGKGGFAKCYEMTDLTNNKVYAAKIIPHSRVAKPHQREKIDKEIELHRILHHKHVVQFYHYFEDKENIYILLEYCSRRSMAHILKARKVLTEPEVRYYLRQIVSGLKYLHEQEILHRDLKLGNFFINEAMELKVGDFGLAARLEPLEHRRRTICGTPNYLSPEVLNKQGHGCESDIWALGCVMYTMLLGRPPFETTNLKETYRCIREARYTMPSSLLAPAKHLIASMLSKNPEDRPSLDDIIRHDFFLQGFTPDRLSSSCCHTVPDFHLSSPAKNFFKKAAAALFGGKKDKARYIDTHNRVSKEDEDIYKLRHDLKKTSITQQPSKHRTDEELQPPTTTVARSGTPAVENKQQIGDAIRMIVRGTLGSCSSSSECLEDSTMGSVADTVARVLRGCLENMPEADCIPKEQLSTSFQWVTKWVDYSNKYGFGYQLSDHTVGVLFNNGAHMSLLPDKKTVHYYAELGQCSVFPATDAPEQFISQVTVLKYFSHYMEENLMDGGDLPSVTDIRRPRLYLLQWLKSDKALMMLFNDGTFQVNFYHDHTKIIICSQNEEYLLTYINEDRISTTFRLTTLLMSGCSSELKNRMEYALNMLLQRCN
Chain of UniProt Q15208 (whole entry, looked up): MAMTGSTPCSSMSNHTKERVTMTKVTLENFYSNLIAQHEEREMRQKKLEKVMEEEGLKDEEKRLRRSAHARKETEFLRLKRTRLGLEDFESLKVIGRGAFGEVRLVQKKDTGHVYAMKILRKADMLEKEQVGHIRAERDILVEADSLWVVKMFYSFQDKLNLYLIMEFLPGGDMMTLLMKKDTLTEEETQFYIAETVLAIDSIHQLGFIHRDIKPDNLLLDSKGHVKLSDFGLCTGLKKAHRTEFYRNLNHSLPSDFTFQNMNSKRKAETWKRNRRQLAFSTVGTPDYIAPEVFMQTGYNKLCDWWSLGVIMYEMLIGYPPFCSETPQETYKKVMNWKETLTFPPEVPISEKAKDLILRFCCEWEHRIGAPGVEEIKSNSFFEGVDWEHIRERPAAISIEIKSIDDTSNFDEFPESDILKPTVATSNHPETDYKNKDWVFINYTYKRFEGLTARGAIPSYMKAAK
Chain of UniProt Q9NRH2 (whole entry, looked up): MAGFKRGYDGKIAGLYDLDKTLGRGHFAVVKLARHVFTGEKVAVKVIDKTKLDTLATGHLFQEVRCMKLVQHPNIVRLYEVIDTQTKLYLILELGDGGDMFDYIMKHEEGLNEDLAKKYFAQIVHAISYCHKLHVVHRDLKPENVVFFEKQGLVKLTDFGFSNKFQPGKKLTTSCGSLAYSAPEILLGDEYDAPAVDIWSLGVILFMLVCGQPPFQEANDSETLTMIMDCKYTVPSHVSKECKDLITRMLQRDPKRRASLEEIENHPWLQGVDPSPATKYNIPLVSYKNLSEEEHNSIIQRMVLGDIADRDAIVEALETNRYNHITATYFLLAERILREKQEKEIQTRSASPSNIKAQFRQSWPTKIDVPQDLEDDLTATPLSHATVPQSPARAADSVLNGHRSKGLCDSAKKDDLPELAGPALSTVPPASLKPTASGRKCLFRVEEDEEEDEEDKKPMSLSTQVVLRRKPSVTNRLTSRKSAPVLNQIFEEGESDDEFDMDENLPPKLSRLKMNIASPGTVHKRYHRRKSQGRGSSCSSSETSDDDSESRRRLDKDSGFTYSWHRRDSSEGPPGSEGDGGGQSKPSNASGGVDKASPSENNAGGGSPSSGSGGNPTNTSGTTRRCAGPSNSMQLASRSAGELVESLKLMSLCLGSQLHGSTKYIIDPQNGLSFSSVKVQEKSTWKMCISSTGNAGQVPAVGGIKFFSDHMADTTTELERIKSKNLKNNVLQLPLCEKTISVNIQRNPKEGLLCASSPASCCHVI
Chain of UniProt Q9Y2I7 (whole entry, looked up): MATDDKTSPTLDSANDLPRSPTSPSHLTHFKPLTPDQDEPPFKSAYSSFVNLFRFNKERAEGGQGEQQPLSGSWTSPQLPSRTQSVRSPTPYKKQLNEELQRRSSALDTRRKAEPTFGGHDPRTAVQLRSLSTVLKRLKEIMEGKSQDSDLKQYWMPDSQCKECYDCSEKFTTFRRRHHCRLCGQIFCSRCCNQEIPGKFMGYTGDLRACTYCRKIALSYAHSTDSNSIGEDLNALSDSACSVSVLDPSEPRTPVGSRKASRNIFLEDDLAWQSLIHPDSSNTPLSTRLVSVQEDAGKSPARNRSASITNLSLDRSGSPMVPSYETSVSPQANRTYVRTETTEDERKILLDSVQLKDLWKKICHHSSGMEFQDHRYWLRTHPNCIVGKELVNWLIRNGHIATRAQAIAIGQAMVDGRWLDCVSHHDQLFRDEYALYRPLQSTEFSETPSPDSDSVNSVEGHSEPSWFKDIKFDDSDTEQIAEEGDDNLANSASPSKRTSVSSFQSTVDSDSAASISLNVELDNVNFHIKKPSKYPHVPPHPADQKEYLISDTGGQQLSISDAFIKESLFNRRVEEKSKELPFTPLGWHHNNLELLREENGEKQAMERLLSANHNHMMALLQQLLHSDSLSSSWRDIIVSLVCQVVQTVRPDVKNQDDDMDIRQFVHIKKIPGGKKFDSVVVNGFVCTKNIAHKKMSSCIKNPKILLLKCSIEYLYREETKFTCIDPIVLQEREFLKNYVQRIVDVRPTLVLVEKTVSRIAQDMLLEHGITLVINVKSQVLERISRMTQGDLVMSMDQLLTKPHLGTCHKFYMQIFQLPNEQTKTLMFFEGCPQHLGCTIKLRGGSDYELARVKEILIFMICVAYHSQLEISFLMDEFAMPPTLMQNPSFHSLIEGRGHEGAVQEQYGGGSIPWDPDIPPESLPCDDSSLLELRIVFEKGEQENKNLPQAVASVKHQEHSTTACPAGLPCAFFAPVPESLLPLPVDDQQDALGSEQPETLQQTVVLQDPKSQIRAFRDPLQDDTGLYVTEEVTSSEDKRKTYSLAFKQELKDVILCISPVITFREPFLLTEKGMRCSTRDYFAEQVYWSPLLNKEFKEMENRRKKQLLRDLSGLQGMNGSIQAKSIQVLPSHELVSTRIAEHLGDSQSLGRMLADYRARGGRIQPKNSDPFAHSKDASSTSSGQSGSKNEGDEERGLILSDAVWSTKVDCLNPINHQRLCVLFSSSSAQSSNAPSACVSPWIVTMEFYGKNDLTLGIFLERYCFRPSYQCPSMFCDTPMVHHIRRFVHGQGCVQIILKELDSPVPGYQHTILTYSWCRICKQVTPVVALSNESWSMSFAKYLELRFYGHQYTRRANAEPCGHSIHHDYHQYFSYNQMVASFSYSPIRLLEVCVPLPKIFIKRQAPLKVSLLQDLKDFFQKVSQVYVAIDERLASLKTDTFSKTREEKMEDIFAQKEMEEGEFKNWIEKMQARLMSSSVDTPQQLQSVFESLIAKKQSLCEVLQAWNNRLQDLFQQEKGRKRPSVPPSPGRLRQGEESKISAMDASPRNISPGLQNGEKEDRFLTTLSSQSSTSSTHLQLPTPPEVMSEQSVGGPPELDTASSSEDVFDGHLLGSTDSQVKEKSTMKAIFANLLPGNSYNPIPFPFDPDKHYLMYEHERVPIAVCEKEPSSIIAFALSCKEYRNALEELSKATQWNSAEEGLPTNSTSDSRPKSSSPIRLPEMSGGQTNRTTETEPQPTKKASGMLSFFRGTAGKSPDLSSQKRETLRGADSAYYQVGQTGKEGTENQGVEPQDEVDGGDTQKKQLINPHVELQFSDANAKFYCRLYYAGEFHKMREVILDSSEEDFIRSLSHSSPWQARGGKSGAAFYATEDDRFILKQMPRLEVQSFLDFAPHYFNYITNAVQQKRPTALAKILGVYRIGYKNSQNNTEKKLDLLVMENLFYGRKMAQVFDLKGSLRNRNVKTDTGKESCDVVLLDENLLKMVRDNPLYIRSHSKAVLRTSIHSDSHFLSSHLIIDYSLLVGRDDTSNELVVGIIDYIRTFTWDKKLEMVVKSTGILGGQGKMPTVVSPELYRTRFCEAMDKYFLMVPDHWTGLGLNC
Chain of UniProt P31749 (whole entry, looked up): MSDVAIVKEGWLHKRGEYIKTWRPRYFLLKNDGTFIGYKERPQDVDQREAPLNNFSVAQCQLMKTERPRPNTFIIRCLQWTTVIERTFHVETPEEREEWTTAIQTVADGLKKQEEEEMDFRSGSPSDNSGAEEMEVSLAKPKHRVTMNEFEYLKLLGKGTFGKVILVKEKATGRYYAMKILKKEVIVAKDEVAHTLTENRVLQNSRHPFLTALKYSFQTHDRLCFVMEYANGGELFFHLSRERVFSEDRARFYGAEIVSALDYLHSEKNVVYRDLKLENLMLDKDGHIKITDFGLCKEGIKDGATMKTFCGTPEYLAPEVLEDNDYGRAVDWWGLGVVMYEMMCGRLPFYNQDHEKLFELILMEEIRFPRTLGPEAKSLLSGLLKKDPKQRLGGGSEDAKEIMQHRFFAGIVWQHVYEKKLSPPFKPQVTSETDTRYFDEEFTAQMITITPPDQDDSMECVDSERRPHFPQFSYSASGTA
Chain of UniProt Q96BR1 (whole entry, looked up): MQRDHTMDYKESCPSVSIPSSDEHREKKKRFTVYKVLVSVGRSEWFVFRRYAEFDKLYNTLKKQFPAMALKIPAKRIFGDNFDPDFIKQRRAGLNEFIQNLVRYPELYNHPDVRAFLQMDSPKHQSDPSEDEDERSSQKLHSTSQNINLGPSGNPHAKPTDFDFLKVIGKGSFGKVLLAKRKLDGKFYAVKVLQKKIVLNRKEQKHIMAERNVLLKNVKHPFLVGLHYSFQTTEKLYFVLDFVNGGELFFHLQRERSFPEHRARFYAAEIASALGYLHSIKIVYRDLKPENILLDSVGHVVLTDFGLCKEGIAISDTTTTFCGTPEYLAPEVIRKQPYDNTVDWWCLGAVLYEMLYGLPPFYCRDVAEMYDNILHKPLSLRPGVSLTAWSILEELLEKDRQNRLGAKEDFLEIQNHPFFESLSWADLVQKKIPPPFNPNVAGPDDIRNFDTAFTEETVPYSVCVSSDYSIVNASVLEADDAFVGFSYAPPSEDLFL

Set 1
Compound: CC(=O)Nc1c(C(C)=O)c(=O)n(C)c2nc(-c3ccc(Cl)cc3Cl)c(-c3ccc(Cl)cc3)cc12
Observed: cell-free assay
Technique: competition with immobilised ligand
Tested at: 1 µM
Quantity: remaining binding
target = EGFR (Homo sapiens, UniProt P00533, del752-759); result = 100%
target = AKT1 (Homo sapiens, UniProt P31749); result = 100%
target = SGK3 (Homo sapiens, UniProt Q96BR1); result = 100%
target = DCLK3 (Homo sapiens, UniProt Q9C098); result = 100%
target = PIKFYVE (Homo sapiens, UniProt Q9Y2I7); result = 100%
target = STK38 (Homo sapiens, UniProt Q15208); result = 93%
target = NEK10 (Homo sapiens, UniProt Q6ZWH5); result = 100%
target = SNRK (Homo sapiens, UniProt Q9NRH2); result = 78%
target = EGFR (Homo sapiens, UniProt P00533, G719S); result = 100%
target = PIK3CD (Homo sapiens, UniProt O00329); result = 100%
target = EPHB1 (Homo sapiens, UniProt P54762); result = 100%
target = Tyrosine-protein kinase ABL1, phosphorylated (ABL1, Homo sapiens, UniProt P00519, Q252H); result = 72%
target = ERBB3 (Homo sapiens, UniProt P21860); result = 100%
target = PLK2 (Homo sapiens, UniProt Q9NYY3); result = 100%
target = Tyrosine-protein kinase ABL1, phosphorylated (ABL1, Homo sapiens, UniProt P00519, M351T); result = 100%
target = BRSK1 (Homo sapiens, UniProt Q8TDC3); result = 85%

Set 2
Organism: Sarcocystis neurona
Observed: parasite growth
Tested at: concentration not given
Notes: first screen
Baseline: untreated
Quantity: log2 fold change
SMILES = Cl.c1ccc2c(c1)CCCC2C1=NCCN1 (stereo not drawn); result = 0.14
SMILES = COc1ccc(C(=O)NCc2ccc(OCCN(C)C)cc2)cc1OC.Cl; result = 0.21
SMILES = Cl.O=C(O)/C=C/c1ccc(Cn2ccnc2)cc1; result = 0.1

Set 3
Target: CCND2, cyclin fold, Cln2 fusion (human)
Technique: yeast growth competition, sequencing
Sample: yeast
Notes: weak parent motif
Baseline: not given
Direction: higher = stronger binding
Quantity: normalised enrichment score
Parent: CDC25A docking peptide (human); PPHRRRLLFACSP; partner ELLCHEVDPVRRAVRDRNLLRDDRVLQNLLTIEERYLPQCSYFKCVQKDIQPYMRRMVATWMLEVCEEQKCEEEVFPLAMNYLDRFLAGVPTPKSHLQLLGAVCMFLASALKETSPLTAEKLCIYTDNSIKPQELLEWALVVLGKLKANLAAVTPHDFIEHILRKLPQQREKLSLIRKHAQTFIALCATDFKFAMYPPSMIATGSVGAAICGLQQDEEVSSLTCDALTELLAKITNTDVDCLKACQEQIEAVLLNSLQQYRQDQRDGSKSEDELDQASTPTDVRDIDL
Variant = F9A; result = 0.318
Variant = P2W; result = 0.0857
Variant = F9D; result = -0.331
Variant = S12G; result = 0.345
Variant = R5Q; result = 0.394
Variant = R6K; result = 0.292
Variant = C11K; result = -0.376
Variant = R6H; result = 0.0275

Set 4
Compound: CC(C)n1cnc(-c2ccc(F)cc2)c1-c1ncc(C(=O)Nc2ccc(N3CCN(C)CC3)cc2)[nH]1
Technique: phase 2a trial
Quantity: patients with TEAE
host = patients with idiopathic pulmonary fibrosis; dose = 60 mg once daily; notes = eye swelling, grade 2; result = 0%
host = idiopathic pulmonary fibrosis patients; route = oral; dose = 30 mg once daily; notes = musculoskeletal disorders, grade 3; result = 0%
host = idiopathic pulmonary fibrosis patients; route = oral; dose = dose not given; notes = GLDH increased, grade 3, all arms; result = 0%

Single results of other studies
SMILES = CCOc1ccc(Nc2c3c(nc4ccccc24)CCC3)cc1; target or system = Leishmania donovani; assay = parasite killing; test system = DD8, promastigotes; setting = 6.66 µM, 96 h; quantity = inhibition; result = 81% and 82% and 80%
SMILES = CCn1c(C)c(C)c2c(-c3ccccc3)c(C(OC(C)(C)C)C(=O)O)c(C)nc21 (stereo not drawn); test system = human, microsomes or S9; setting = 2 µM, 0.5 h; quantity = remaining compound; result = > 100%
SMILES = CN(C(=O)c1ccn2ncc(-c3ccc(C(N)=O)cc3)c2c1)c1ccc(C#N)cn1; target or system = Cryptosporidium parvum; assay = time-kill; test system = HCT-8, nanoluciferase-expressing; setting = 0.7407 µM, 72 h; how to read = baseline: DMSO control; quantity = luminescence remaining; result = 8.67% and 9.14%

A few entries again (set 2):
SMILES = Cl.c1ccc2c(c1)CCCC2C1=NCCN1 (stereo not drawn); result = 0.14
SMILES = Cl.O=C(O)/C=C/c1ccc(Cn2ccnc2)cc1; result = 0.1
SMILES = COc1ccc(C(=O)NCc2ccc(OCCN(C)C)cc2)cc1OC.Cl; result = 0.21
